{"data": "Measured values collected from several papers", "JAK2": "Tyrosine-protein kinase JAK2 (JAK2, Homo sapiens, UniProt O60674)", "GBA2": "Beta-glucosidase (GBA2, Homo sapiens, UniProt Q9HCG7)", "note": "Lines come from different studies, so protocols differ. Several values in a cell are separate wells, animals, samples, runs or records. Numbers after ± are the reported error.", "chain of UniProt O60674 (whole entry, looked up)": "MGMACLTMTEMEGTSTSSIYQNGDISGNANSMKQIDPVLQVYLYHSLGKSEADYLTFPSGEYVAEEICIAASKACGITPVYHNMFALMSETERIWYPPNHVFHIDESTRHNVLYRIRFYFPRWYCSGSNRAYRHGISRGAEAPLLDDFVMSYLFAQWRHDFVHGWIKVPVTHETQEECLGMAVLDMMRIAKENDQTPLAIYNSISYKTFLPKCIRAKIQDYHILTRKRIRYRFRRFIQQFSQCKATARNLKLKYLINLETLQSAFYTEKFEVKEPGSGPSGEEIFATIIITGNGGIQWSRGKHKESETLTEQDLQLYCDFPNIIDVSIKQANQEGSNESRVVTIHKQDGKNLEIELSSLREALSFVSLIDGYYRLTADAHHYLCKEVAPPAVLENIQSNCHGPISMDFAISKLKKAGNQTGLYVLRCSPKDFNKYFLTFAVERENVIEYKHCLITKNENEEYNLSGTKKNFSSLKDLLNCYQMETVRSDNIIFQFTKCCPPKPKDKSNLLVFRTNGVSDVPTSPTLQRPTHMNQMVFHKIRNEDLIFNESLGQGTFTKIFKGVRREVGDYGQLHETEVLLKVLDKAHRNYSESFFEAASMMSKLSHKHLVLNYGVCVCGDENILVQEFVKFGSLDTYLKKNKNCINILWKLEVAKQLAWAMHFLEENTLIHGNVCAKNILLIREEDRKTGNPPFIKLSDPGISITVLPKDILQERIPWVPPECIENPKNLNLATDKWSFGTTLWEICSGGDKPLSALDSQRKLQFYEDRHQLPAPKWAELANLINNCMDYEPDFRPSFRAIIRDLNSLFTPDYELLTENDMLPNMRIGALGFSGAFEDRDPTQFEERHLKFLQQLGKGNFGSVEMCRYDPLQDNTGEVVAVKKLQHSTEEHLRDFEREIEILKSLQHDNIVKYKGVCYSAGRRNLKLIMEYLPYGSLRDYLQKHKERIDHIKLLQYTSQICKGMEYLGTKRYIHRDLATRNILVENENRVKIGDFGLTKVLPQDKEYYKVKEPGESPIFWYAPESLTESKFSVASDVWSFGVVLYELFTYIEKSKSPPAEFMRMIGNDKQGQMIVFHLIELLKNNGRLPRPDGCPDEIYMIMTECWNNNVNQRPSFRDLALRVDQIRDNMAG", "chain of UniProt Q9HCG7 (whole entry, looked up)": "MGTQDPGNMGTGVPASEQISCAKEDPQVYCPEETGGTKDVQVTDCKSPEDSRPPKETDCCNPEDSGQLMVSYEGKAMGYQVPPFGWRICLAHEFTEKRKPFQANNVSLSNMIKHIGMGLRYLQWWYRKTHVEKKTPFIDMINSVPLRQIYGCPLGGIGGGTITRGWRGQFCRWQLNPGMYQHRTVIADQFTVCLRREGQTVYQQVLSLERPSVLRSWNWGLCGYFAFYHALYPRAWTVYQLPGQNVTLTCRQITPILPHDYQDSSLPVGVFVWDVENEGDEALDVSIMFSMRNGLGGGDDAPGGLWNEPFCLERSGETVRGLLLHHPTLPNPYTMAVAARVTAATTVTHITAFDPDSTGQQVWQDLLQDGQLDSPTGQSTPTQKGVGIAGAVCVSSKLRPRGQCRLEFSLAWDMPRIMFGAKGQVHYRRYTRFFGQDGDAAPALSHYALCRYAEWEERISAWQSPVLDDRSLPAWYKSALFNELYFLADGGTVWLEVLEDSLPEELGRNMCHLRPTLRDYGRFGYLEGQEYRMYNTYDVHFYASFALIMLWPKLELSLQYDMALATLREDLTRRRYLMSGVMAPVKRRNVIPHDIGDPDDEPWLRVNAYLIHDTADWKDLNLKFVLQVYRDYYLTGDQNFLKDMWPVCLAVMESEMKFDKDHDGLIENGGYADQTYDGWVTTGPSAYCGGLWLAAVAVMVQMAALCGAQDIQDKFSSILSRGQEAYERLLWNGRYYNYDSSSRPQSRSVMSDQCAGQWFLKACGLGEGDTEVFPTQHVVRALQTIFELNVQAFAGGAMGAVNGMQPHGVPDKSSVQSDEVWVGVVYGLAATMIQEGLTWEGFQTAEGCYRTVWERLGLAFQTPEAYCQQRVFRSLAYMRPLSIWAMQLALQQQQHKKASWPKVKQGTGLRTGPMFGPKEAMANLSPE", "chain of UniProt O14744 (whole entry, looked up)": "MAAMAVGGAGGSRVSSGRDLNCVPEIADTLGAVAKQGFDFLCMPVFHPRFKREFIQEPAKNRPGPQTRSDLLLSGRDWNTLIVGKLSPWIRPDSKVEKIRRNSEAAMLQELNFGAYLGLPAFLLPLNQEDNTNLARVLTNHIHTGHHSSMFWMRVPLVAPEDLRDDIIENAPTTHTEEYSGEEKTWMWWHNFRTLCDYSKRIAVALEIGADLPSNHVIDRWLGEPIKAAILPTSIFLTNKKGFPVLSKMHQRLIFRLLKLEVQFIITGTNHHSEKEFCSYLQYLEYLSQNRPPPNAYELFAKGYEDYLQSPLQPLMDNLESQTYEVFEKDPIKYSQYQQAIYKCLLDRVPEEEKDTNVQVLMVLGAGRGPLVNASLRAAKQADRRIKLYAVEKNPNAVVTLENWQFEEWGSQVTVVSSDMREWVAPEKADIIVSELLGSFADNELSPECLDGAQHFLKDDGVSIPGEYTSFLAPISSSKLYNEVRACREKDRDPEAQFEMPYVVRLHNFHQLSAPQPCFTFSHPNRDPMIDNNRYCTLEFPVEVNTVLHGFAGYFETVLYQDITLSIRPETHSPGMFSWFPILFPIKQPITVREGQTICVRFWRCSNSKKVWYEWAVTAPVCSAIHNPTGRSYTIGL", "chain of UniProt P04150 (whole entry, looked up)": "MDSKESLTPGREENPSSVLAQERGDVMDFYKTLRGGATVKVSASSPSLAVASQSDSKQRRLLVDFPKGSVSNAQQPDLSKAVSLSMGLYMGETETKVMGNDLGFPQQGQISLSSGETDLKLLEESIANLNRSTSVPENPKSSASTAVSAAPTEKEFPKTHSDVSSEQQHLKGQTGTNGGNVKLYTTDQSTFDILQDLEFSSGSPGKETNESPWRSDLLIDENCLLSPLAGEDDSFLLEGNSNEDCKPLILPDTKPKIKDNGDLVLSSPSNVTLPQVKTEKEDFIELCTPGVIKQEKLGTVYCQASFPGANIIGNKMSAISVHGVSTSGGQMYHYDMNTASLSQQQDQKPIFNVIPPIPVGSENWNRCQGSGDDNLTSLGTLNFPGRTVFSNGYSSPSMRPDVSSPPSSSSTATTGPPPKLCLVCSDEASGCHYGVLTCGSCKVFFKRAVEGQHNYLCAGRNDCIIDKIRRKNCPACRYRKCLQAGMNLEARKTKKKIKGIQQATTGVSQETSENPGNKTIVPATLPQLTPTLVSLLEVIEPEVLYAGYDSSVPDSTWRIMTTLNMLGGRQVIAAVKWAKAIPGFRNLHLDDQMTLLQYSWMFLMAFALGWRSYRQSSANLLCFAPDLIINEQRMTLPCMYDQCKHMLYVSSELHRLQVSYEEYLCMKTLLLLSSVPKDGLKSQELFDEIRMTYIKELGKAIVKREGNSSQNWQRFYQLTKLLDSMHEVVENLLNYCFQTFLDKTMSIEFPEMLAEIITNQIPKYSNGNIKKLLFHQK", "chain of UniProt O96013 (whole entry, looked up)": "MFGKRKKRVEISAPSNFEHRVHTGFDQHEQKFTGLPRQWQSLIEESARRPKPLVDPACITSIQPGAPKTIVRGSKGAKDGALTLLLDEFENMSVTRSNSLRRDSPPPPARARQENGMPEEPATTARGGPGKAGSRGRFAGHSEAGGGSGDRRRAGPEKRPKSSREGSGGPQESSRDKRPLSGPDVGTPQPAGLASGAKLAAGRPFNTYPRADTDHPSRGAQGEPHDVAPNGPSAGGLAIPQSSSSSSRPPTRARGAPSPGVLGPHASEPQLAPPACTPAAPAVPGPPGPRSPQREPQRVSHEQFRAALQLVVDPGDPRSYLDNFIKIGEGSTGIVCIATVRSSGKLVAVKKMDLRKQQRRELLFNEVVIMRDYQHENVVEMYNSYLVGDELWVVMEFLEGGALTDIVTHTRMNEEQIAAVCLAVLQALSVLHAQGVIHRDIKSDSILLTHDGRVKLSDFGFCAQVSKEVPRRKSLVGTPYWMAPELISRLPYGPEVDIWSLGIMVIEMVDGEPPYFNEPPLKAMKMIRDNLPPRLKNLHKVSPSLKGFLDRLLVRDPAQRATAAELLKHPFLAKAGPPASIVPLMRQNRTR", "chain of UniProt P30874 (whole entry, looked up)": "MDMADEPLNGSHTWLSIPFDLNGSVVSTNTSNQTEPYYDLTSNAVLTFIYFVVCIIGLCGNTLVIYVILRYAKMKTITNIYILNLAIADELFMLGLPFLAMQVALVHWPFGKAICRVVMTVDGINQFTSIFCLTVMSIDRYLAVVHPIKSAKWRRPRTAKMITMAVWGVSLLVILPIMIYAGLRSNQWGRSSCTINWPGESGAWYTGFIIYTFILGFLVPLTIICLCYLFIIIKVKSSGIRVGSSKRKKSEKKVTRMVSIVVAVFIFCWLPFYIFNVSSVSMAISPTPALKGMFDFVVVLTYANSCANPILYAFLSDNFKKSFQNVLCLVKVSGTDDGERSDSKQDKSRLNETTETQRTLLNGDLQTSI", "chain of UniProt P54646 (whole entry, looked up)": "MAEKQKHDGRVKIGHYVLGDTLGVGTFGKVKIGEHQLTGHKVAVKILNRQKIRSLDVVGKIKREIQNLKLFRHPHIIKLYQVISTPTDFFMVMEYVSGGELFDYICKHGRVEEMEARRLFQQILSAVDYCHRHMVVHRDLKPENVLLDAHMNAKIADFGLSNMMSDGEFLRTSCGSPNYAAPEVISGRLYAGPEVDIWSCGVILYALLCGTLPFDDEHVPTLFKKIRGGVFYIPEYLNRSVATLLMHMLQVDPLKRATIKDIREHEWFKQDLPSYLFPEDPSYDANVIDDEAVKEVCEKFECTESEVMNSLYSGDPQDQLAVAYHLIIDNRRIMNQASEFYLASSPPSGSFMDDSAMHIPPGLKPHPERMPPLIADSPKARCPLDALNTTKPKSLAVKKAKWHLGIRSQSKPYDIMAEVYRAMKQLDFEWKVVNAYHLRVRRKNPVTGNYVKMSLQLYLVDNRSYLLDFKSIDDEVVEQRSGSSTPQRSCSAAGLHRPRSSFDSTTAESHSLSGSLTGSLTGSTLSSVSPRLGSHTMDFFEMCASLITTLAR"}
{"SMILES": "CC(=O)C12NC(C)(C)CC1(C)C(=O)C1=C2c2c(c3c4n2C(C)(C)CC2=C4C4(CC(C)(C)NC(C)(C4)C2=O)CC3(C)C)C(=O)C(C)(C)N1 (single isomer, unassigned; (+))", "target or system": "TRPV1 (Homo sapiens, UniProt Q8NER1)", "test": "ion current, inhibitor, patch clamp", "system": "HEK-293T", "conditions": "50 µM", "quantity": "inhibition", "value": "9.26%"}
{"SMILES": "Brc1ccccc1-c1nnc(CSc2nnnn2-c2ccccc2)o1", "target or system": "HTR3A (Homo sapiens, UniProt P46098)", "test": "ligand displacement, radioligand", "conditions": "10 µM", "quantity": "inhibition", "value": "-2%"}
{"SMILES": "COC1CN([C@H]2CC[C@H]([C@@]3(C)Oc4c(Cl)cc(C(=O)NCc5c(SC)cc(C)[nH]c5=O)c(C)c4O3)CC2)C1", "test": "RNA-seq, measured: HOMER1 mouse homolog", "system": "mouse, HT-1376 xenograft, whole blood", "conditions": "dose not given", "scale": "baseline: vehicle", "quantity": "log2 fold change", "value": 0.795}
{"SMILES": "CN1CCN(Cc2ccc(-c3ccc(CO[C@H]4CCC[C@@H]4NC(=O)c4cc(-c5cnn(C)c5)cnc4N)cc3)cc2)CC1", "target or system": "RET (Homo sapiens, UniProt P07949, V804L)", "test": "enzyme activity, inhibitor", "conditions": "0.1 µM", "quantity": "inhibition", "value": "7%"}
{"SMILES": "Cc1cnc2nc1Nc1cccc(c1)COCc1cc(ccc1OCCN1CCOCC1)N2", "target or system": "JAK2", "test": "inhibitor, Z'-LYTE kinase", "conditions": "37.04 nM", "quantity": "inhibition", "value": "48.5% and 47.4% and 49.8%"}
{"SMILES": "N=C(N)NCCCC(NC(=O)C(CC(=O)NO)Cc1ccc2ccccc2c1)C(=O)NC(Cc1c[nH]c2ccccc12)C(=O)NC(CCC(=O)O)C(N)=O (stereo not drawn)", "target or system": "Matrilysin (MMP7, Homo sapiens, UniProt P09237)", "conditions": "1 µM", "quantity": "inhibition", "value": "8%"}
{"SMILES": "Cc1nn(-c2cccc(N)c2)c(=O)c2cnc(Nc3ccc(N4CCNCC4)cc3)nc12", "target or system": "PAK4 (Homo sapiens, UniProt O96013)", "test": "kinase activity, inhibitor, SelectScreen kinase profiling", "quantity": "IC50", "value": "> 10 µM"}
{"SMILES": "Cc1cnc2nc1Nc1cc(F)cc(c1)COC/C=C/COCc1cc(ccc1OCCN1CCCC1)N2", "target or system": "JAK2", "test": "inhibitor, Z'-LYTE kinase", "conditions": "1000 nM", "quantity": "inhibition", "value": "97.8% and 96.5% and 99.2%"}
{"SMILES": "OC[C@H]1[C@@H](O)[C@H](O)[C@@H](O)CN1CCCCCOCC12CC3CC(C1)CC(COCCCCCN1C[C@H](O)[C@@H](O)[C@H](O)[C@@H]1CO)(C3)C2", "target or system": "GBA2", "test": "inhibitor, 4MU-β-D-glucopyranoside", "system": "HEK293T homogenates overexpressing GBA2", "scale": "baseline: GCS IC50 over GBA2 IC50", "quantity": "selectivity ratio", "value": 769}
{"SMILES": "Cc1ccc(NC(=O)/C(=C/c2ccc(Cl)cc2Cl)Sc2ccc(C)cc2)cc1", "target or system": "AGER (Homo sapiens, UniProt Q15109)", "test": "AGE2-BSA binding, inhibitor, competitive ELISA", "conditions": "100 µM, 60 min, with: AGE2-BSA", "quantity": "inhibition", "value": "76%"}
{"SMILES": "O=C1c2sc(-c3ccc(N4CCC(CO)CC4)nc3F)nc2CCN1c1cccnc1", "target or system": "Cacna1b (Rattus norvegicus, UniProt Q02294)", "test": "ligand displacement, radioligand", "conditions": "1 µM", "quantity": "inhibition", "value": "-2%"}
{"SMILES": "C=CC(=O)Nc1cccc(Cn2ncc3cnc(Nc4cnn(CCOC)c4)nc32)c1", "target or system": "ITK human", "test": "binding, KINOMEscan", "conditions": "100 nM", "scale": "lower = stronger binding", "quantity": "percent of control", "value": "31%"}
{"SMILES": "CCn1cc(C(=O)O)c(=O)c2c(N)c(F)c(NC3CCCCC3)cc21", "target or system": "5'-AMP-activated protein kinase catalytic subunit alpha-2, with beta2 gamma3 (PRKAA2, Homo sapiens, UniProt P54646)", "test": "kinase activity", "conditions": "0.1 µM, with: ATP at Km", "quantity": "inhibition", "value": "9%"}
{"SMILES": "C[Si](C)(C)C[C@@H](CN)CC(=O)O", "target or system": "SSTR2 (Homo sapiens, UniProt P30874)", "test": "ligand displacement, radioligand", "conditions": "75 µM", "quantity": "inhibition", "value": "7%"}
{"SMILES": "O=C1c2sc(-c3ccc(N4CCC(F)C4)nc3F)nc2CCN1c1cccnc1 (stereo not drawn)", "target or system": "NR3C1 (Homo sapiens, UniProt P04150)", "test": "ligand displacement, radioligand", "conditions": "1 µM", "quantity": "inhibition", "value": "-4%"}
{"SMILES": "OC[C@@H]1[C@@H](O)[C@H](O)[C@@H](O)CN1CCCCCOCc1ccccc1-c1ccccc1", "target or system": "GBA2", "test": "inhibitor, 4MU-β-D-glucopyranoside", "system": "HEK293T homogenates overexpressing GBA2", "scale": "baseline: GCS IC50 over GBA2 IC50", "quantity": "selectivity ratio", "value": 17}
{"SMILES": "C/C=C/C(=O)Nc1ccc2nc(NCCCCCN(C)C)nc(NCCCCCCN(C)C)c2c1", "target or system": "PRMT5 (Homo sapiens, UniProt O14744)", "test": "enzyme activity, inhibitor, radiometric", "conditions": "10 µM", "quantity": "inhibition", "value": "3%"}
{"SMILES": "Cc1ccc(N(O)/N=N/c2ccc(S(=O)(=O)Nc3nccs3)cc2)cc1", "target or system": "α-glucosidase, rat intestine", "test": "enzyme activity", "conditions": "60 µg/mL, with: 4-nitrophenyl α-D-glucopyranoside", "quantity": "inhibition", "value": "12.5 ± 0.01%"}
{"note": "Some of these lines once more:"}
{"SMILES": "C[Si](C)(C)C[C@@H](CN)CC(=O)O", "target or system": "SSTR2 (Homo sapiens, UniProt P30874)", "test": "ligand displacement, radioligand", "conditions": "75 µM", "quantity": "inhibition", "value": "7%"}
{"SMILES": "CN1CCN(Cc2ccc(-c3ccc(CO[C@H]4CCC[C@@H]4NC(=O)c4cc(-c5cnn(C)c5)cnc4N)cc3)cc2)CC1", "target or system": "RET (Homo sapiens, UniProt P07949, V804L)", "test": "enzyme activity, inhibitor", "conditions": "0.1 µM", "quantity": "inhibition", "value": "7%"}
